Measured values gathered from unrelated publications.
Each line is one published result; not all experiments were run side by side. Converted amounts (≈) assume the structure as drawn.
Organism: Pseudomonas aeruginosa

CC(=O)N[C@@H](Cc1c[nH]c2ccccc12)C(=O)NCCCCCCCCCCCC(=O)NCCCC[C@@H]1NC(=O)[C@H](CCCNC(=N)N)NC(=O)[C@H](CCCNC(=N)N)NC(=O)[C@H](CCCNC(=N)N)NC(=O)[C@H](CCCNC(=N)N)NC(=O)[C@H](CCCNC(=N)N)NC1=O  MIC (broth microdilution; PAO1; 37 °C): 167 µg/mL (≈ 125 µM)
CC(C)[C@H](NC(=O)[C@H](CCCCN)NC(=O)[C@H](CCCNC(=N)N)NC(=O)CNC(=O)[C@H](C)NC(=O)[C@H](CC(N)=O)NC(=O)[C@H](CCCNC(=N)N)NC(=O)[C@@H](NC(=O)[C@H](CCCCN)NC(=O)[C@H](CC(=O)O)NC(=O)[C@@H](NC(=O)[C@@H](NC(=O)[C@H](CCCNC(=N)N)NC(=O)[C@H](CCCNC(=N)N)NC(=O)[C@H](Cc1c[nH]c2ccccc12)NC(=O)[C@H](Cc1c[nH]c2ccccc12)NC(=O)CN)[C@@H](C)O)C(C)C)C(C)C)C(=O)O  MIC (clinical strain 103; 18 h, 37 °C): > 256 µg/mL
CC[C@H](C)[C@@H]1NC(=O)[C@H](CC(C)C)NC(=O)[C@@H](NC(=O)[C@H](CO)NC(=O)[C@H](CCCNC(=N)N)NC(=O)[C@@H](N)CO)CSSC[C@H](NC(=O)[C@H](CO)NC(=O)[C@H](CCCNC(=N)N)NC(=O)[C@@H](N)CO)C(=O)N[C@@H](CC(C)C)C(=O)N[C@@H]([C@@H](C)CC)C(=O)N[C@@H](C(C)C)C(=O)N[C@H](C(=O)N[C@@H](CCC(N)=O)C(=O)N[C@@H](CCCNC(=N)N)C(=O)N[C@@H](CC(C)C)C(=O)N[C@@H](Cc2ccccc2)C(N)=O)CSSC[C@@H](C(=O)N[C@@H](CCC(N)=O)C(=O)N[C@@H](CCCNC(=N)N)C(=O)N[C@@H](CC(C)C)C(=O)N[C@@H](Cc2ccccc2)C(N)=O)NC(=O)[C@H](C(C)C)NC1=O  MIC (broth microdilution; ATCC 27853): > 100 µg/mL
CC(C)[C@H](NC(=O)[C@H]1NC(=O)[C@H](CO)NC(=O)[C@H](CC(N)=O)NC(=O)[C@@H](N)Cc2c[nH]c3cc(ccc23)C1C(N)=O)C(=O)N[C@H]1Cc2cn(cn2)C(c2ccc(O)cc2)[C@@H](C(=O)N[C@@H](CCCNC(=N)N)C(=O)N[C@@H](Cc2ccccc2)C(=O)O)NC(=O)[C@H](CO)NC1=O (stereo partly drawn)  MIC (PA01): 8 µg/mL (≈ 6.13 µM)
CC[C@H](C)[C@H](NC(=O)[C@@H](CCCNC(=N)N)NC(=O)[C@H](CCCNC(=N)N)NC(=O)[C@@H]1CCCN1C(=O)[C@H](Cc1c[nH]c2ccccc12)NC(=O)[C@H](CCCNC(=N)N)NC(=O)[C@@H]1CCCN1C(=O)[C@H](CCCNC(=N)N)NC(=O)[C@@H]1CCCN1C(=O)[C@H](CC(C)C)NC(=O)[C@H](Cc1ccc(O)cc1)NC(=O)[C@@H]1CCCN1C(=O)[C@@H]1CCCN1C(=O)[C@H](CCCCN)NC(=O)[C@H](CC(=O)O)NC(=O)[C@@H](N)C(C)C)C(=O)N[C@@H](Cc1ccc(O)cc1)C(=O)N[C@@H](CC(N)=O)C(=O)N[C@H](CCCNC(=N)N)C(N)=O  MIC (broth microdilution; DSM 1117; 18 h): 128 µg/mL (≈ 51.6 µM)
CC(C)C[C@@H]1NC(=O)CSC[C@@H](C(=O)N[C@@H](CCCCN)C(N)=O)NC(=O)[C@H](CC(C)C)NC(=O)[C@H](CC(C)C)NC(=O)[C@H](CC(C)C)NC(=O)[C@@H]2CSCC(=O)N[C@@H](CC(C)C)C(=O)N[C@@H](CC(C)C)C(=O)N[C@@H](CCCCN)C(=O)N[C@@H](CCCCNC(=O)[C@H](CCCCN)NC(=O)[C@H](CC(C)C)NC1=O)C(=O)N[C@@H](CCCCN)C(=O)N[C@@H](CCCCN)C(=O)N[C@@H](CC(C)C)C(=O)N2  MIC (PAO1; 18 h): 64 µg/mL (≈ 32.4 µM)
CC[C@H](C)[C@H](NC(=O)[C@H](CCCNC(=N)N)NC(=O)[C@H](Cc1ccccc1)NC(=O)[C@H](CC(C)C)NC(=O)[C@H](CCCCN)NC(=O)[C@H](CO)NC(=O)[C@@H](NC(=O)[C@H](CC(C)C)NC(=O)[C@H](CCCCN)NC(=O)[C@H](C)NC(=O)[C@H](CC(N)=O)NC(=O)[C@H](CCCNC(=N)N)NC(=O)[C@H](Cc1ccc(O)cc1)NC(=O)[C@H](C)NC(=O)[C@@H](NC(=O)[C@H](CCCCN)NC(=O)[C@H](CC(N)=O)NC(=O)[C@H](CCCCN)NC(=O)[C@H](CC(C)C)NC(=O)[C@H](CO)NC(=O)[C@H](CC(C)C)NC(=O)[C@H](C)NC(=O)[C@H](C)NC(=O)[C@H](CO)NC(=O)[C@@H](NC(=O)[C@@H](NC(=O)[C@H](Cc1c[nH]c2ccccc12)NC(=O)[C@@H](NC(=O)[C@H](CO)NC(=O)[C@@H](NC(=O)[C@@H](N)CC(C)C)C(C)C)C(C)C)[C@@H](C)CC)[C@@H](C)CC)C(C)C)C(C)C)C(=O)N[C@@H](C)C(=O)N[C@@H](CC(C)C)C(=O)O  MIC (broth microdilution; ATCC 27853; 24 h, 37 °C): 8 µg/mL (≈ 2.17 µM)
CC(C)C[C@H](NC(=O)[C@@H]1CSCC(=O)NCCCC[C@@H]2NC(=O)CSC[C@H](NC(=O)[C@H](CCCCN)NC2=O)C(=O)N[C@@H](CCCCN)C(=O)N[C@@H](CC(C)C)C(=O)N1)C(N)=O  MIC (PAO1; 18 h): > 256 µg/mL
CC(C)CCCCCCCCCCCCc1cc(O)cc(O)c1  MIC (broth microdilution; PAO1 chloramphenicol-resistant; 37 °C): > 64 µg/mL

Repeated from above:
CC[C@H](C)[C@@H]1NC(=O)[C@H](CC(C)C)NC(=O)[C@@H](NC(=O)[C@H](CO)NC(=O)[C@H](CCCNC(=N)N)NC(=O)[C@@H](N)CO)CSSC[C@H](NC(=O)[C@H](CO)NC(=O)[C@H](CCCNC(=N)N)NC(=O)[C@@H](N)CO)C(=O)N[C@@H](CC(C)C)C(=O)N[C@@H]([C@@H](C)CC)C(=O)N[C@@H](C(C)C)C(=O)N[C@H](C(=O)N[C@@H](CCC(N)=O)C(=O)N[C@@H](CCCNC(=N)N)C(=O)N[C@@H](CC(C)C)C(=O)N[C@@H](Cc2ccccc2)C(N)=O)CSSC[C@@H](C(=O)N[C@@H](CCC(N)=O)C(=O)N[C@@H](CCCNC(=N)N)C(=O)N[C@@H](CC(C)C)C(=O)N[C@@H](Cc2ccccc2)C(N)=O)NC(=O)[C@H](C(C)C)NC1=O  MIC (broth microdilution; ATCC 27853): > 100 µg/mL
